Published values gathered from unrelated publications.
Each line is one published result; not all experiments were run side by side. Values joined by “and” are separate records of one study, mostly repeats; a detail may differ. ± gives the spread as reported.
Chain of UniProt Q80YA3 (whole entry, looked up): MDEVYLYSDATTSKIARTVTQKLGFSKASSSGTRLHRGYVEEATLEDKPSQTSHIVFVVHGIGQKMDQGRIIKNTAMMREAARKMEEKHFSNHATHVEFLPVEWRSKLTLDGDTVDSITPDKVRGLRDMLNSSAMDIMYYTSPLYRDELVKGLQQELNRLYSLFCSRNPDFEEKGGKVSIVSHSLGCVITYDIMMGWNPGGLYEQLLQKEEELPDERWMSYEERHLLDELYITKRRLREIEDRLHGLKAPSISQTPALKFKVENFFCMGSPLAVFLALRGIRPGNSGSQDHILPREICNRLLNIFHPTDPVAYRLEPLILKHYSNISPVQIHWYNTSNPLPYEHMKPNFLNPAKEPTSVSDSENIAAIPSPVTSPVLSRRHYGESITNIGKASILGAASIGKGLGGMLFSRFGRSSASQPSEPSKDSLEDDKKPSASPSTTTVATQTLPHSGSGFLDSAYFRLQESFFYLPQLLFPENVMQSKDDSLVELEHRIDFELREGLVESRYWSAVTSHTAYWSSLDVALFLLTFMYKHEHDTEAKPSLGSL
Chain of UniProt Q8VEB4 (whole entry, looked up): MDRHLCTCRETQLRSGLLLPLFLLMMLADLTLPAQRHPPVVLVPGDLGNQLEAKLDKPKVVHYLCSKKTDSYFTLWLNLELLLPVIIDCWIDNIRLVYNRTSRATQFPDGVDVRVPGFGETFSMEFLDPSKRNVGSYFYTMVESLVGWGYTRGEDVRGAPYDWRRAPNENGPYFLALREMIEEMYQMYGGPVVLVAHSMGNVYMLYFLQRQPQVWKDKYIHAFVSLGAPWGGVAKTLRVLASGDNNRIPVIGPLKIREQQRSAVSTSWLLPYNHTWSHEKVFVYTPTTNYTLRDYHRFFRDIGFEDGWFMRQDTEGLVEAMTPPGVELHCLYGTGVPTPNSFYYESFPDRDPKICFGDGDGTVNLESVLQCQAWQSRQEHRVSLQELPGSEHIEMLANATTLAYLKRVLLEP
Chain of UniProt Q9UH17 (whole entry, looked up): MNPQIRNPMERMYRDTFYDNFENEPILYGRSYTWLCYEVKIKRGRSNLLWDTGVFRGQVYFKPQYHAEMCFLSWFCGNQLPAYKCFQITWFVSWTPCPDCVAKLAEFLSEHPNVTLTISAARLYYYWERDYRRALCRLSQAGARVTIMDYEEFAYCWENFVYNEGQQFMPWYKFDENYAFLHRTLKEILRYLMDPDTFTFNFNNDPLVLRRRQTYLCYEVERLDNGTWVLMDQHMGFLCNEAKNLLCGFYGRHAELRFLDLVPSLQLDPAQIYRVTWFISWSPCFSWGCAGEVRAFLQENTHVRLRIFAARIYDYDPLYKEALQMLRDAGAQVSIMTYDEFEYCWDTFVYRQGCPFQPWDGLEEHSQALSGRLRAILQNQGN
Chain of UniProt Q9ULC6 (whole entry, looked up): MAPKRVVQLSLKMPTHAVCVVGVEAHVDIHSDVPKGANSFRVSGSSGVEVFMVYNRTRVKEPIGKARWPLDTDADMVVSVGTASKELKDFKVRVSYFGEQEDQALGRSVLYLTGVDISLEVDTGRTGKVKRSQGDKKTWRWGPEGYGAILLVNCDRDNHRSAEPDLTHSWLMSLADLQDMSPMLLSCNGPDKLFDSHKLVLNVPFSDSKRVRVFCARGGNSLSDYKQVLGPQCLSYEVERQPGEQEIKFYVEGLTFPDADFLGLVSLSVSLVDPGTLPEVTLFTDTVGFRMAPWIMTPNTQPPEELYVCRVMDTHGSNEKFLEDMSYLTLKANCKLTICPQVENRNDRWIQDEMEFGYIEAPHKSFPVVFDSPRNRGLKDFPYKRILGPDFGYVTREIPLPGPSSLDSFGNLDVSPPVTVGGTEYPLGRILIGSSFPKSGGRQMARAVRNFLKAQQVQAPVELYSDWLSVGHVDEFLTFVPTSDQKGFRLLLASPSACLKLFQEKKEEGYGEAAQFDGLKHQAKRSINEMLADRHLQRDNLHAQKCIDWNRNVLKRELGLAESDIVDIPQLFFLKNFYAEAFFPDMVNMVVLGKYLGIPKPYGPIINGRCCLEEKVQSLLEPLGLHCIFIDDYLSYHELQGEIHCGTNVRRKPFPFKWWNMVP
Chain of UniProt Q13873 (whole entry, looked up): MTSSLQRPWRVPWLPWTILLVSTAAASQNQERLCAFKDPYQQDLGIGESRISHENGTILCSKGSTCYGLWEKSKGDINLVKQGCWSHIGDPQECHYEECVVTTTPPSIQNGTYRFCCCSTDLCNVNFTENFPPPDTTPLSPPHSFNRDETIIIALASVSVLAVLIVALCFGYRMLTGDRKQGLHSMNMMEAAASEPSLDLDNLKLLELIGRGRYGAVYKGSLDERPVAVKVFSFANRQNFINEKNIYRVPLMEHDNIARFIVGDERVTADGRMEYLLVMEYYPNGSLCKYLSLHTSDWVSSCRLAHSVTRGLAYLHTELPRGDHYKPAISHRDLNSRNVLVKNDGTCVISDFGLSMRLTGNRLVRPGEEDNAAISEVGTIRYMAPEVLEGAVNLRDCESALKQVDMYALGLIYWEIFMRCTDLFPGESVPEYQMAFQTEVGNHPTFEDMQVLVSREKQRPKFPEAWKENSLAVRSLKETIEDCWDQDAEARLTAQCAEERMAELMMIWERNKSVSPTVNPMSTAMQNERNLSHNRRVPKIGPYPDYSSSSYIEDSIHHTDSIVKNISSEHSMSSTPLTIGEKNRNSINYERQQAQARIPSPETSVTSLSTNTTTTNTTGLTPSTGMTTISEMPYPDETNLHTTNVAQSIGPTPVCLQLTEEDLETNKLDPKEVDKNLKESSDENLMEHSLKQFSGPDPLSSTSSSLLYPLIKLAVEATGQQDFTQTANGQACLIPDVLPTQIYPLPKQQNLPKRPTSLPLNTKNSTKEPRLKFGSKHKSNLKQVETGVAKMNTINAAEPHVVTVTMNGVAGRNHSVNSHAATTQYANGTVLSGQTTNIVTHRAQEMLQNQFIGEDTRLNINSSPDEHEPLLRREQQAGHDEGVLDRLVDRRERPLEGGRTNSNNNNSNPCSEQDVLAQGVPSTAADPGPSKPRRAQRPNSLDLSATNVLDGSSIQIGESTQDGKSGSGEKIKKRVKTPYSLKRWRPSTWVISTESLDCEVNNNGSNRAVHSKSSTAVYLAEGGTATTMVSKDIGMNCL
Chain of UniProt P19784 (whole entry, looked up): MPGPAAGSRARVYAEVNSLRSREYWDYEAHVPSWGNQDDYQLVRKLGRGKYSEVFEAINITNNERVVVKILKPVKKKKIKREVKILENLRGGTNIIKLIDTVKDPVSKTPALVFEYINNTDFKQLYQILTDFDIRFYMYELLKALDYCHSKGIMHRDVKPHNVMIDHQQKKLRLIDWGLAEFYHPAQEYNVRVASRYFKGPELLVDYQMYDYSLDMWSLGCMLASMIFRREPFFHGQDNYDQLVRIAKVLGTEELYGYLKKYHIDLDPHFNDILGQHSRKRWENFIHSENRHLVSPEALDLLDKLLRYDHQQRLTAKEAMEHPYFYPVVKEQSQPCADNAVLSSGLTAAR
Chain of UniProt P33913 (whole entry, unmodified, looked up): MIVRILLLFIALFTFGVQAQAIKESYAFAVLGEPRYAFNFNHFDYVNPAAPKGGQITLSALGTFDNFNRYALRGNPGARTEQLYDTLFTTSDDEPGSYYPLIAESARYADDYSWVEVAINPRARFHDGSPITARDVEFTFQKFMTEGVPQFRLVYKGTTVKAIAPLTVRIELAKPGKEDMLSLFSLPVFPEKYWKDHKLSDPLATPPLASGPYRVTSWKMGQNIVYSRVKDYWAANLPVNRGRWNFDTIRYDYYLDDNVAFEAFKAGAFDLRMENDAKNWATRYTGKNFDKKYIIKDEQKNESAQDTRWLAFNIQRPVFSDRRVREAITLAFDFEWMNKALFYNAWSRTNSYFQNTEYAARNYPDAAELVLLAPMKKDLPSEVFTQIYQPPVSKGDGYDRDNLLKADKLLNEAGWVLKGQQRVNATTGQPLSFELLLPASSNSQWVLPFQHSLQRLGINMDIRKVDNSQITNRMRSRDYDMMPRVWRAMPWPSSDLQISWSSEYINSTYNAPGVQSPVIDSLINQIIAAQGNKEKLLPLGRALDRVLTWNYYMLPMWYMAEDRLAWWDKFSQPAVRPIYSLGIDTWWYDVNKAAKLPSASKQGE
Chain of UniProt O75460 (whole entry, looked up): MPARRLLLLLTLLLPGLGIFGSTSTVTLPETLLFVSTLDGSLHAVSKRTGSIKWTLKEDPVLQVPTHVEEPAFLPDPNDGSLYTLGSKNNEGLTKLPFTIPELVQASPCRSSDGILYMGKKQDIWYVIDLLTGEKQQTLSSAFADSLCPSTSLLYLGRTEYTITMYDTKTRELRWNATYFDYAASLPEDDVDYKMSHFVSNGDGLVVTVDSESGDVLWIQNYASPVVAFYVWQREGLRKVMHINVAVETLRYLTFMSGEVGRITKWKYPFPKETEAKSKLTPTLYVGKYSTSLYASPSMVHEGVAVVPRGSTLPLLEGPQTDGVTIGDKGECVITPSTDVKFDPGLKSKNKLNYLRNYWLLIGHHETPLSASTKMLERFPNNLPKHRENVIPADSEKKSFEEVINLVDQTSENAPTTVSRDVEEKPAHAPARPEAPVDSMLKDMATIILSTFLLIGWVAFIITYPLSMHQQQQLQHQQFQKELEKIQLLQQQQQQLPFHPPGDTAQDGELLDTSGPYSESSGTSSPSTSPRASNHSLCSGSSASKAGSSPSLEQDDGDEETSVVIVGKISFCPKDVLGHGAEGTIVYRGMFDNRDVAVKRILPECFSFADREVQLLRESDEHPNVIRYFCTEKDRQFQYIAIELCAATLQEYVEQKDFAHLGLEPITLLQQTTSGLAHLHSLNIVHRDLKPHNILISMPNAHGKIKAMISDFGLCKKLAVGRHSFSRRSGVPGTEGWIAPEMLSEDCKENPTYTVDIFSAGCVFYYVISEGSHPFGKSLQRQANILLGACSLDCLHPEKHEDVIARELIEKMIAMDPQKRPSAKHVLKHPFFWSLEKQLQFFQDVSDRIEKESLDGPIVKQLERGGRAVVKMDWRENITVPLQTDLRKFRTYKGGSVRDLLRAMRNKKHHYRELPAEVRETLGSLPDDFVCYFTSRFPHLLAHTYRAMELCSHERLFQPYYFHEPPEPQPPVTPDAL

CCC1(CC)C(=O)N(c2cccc(CN3CCN(Cc4cccc5ccccc45)CC3)c2)C1=O  selectivity ratio (Dipeptidyl peptidase 8 (Homo sapiens, UniProt Q6V1X1); inhibitor; added: GP-AMC substrate; relative to: Ki' DPP9 over Ki' DPP8): > 21
CC[C@H](C)[C@H](NC(=O)[C@H](CCCNC(=N)N)NC(=O)[C@H](CCCNC(=N)N)NC(=O)[C@H](CC(C)C)NC(=O)[C@H](Cc1ccccc1)NC(=O)CNC(=O)CNC(=O)[C@@H](N)Cc1ccc(O)cc1)C(=O)N[C@@H](CCCNC(=N)N)C(=O)N1CCC[C@H]1C(=O)N[C@@H](CCCCN)C(=O)N[C@@H](CC(C)C)C(=O)N[C@@H](CCCCN)C(=O)O  Emax (GPR139 (Homo sapiens, UniProt Q6DWJ6); GαoB activation, agonist, BRET; HEK293T/17; 40 µM): 50.5%
COC(=O)[C@@H](NC(=O)c1nn(Cc2ccc(F)cc2)c2cc(OCCCCNC(=N)N)ccc12)C(C)(C)C  maximal efficacy (Cannabinoid receptor 1, with Gz (CNR1, Homo sapiens, UniProt P21554); GTP turnover, agonist, item: Gz Gα subtype): 106%
CS(C)(=O)=Nc1ccc(-c2ccc(-c3nc4cc(O[C@@H]5CO[C@H]6[C@@H]5OC[C@H]6O)[nH]c4cc3F)cc2)cc1  inhibition (DCLK3 (Homo sapiens, UniProt Q9C098); enzyme activity, inhibitor; 10 µM): -11%
C=CC(=O)Nc1cc(-c2ccc(C(=O)N3CCCC(O)(CC)C3)cc2)ccc1F (centres unmarked)  unmodified protein (DNA dC->dU-editing enzyme APOBEC-3B, C-terminal domain (Homo sapiens, UniProt Q9UH17); covalent adduct, intact protein MS; 125 µM, 5 h, 5-fold molar excess): 47% and 62%
C#CCCCCOc1ccc2c(c1)CCCN2C(=O)CCl  reactivity ratio (Beta-secretase 2 (BACE2, Homo sapiens, UniProt Q9Y5Z0); mass spectrometry profiling; H460 cell lysate; 100 µM over 10 µM, UniProt Q9Y5Z0; relative to: high over low concentration): 1.3
CC(C)NCCN1C(=O)CSC1c1ccc(F)cc1 (centres unmarked)  IC50 (uncharacterized protein (Anopheles gambiae, UniProt Q7QFG0); Ellman; 1000 µM, added: acetylthiocholine): inactive
CC[C@H](C)[C@H](NC(=O)[C@H](CC(C)C)NC(=O)[C@@H](NC(=O)[C@@H](NC(=O)[C@H](CCSC)NC(C)=O)[C@@H](C)CC)[C@@H](C)CC)C(=O)N[C@H](C(=O)N[C@@H](CO)C(=O)N[C@@H](Cc1ccccc1)C(=O)N1CCC[C@H]1C(=O)N[C@@H](CCCCN)C(=O)N[C@@H](Cc1c[nH]cn1)C(=O)N[C@@H](CCCCN)C(=O)N[C@@H](CC(=O)O)C(=O)N[C@@H](Cc1c[nH]c2ccccc12)C(=O)N[C@@H](CCCCN)C(=O)N[C@H](C(=O)N[C@H](C(=O)N[C@@H](CC(C)C)C(=O)N[C@H](C(=O)N[C@@H](CCCCN)C(N)=O)C(C)C)[C@@H](C)CC)C(C)C)[C@@H](C)CC  melting temperature (Interferon regulatory factor 5, residues 222-425 (IRF5, Homo sapiens, UniProt Q13568); thermal shift): 41.53 ± 0.35 °C
CSCC[C@H](NC=O)C(=O)N[C@@H](CCCNC(=N)N)C(=O)N[C@H](C(=O)NCC(=O)N[C@@H](CC(N)=O)C(=O)N[C@@H](C)C(=O)N[C@@H](CC(N)=O)C(=O)NCC(=O)NCC(=O)N[C@@H](CCCCNC(=S)Nc1ccc2c(c1)C(=O)OC21c2ccc(O)cc2Oc2cc(O)ccc21)C(=O)O)[C@@H](C)O  affinity relative to wild type (Uncharacterized protein YejA (yejA, Escherichia coli, UniProt P33913, S499A); ligand, fluorescence polarization; relative to: wild-type YejA): 2.5 fold
CC#CC(=O)NC[C@H](NC(=O)[C@H](CC1CCCCC1)NC(=O)[C@H](CCC(N)=O)NC(C)=O)C(=O)N[C@@H](CC(C)C)C(=O)N[C@@H](Cc1ccccc1)C(=O)O  ΔG (Beta sliding clamp (Escherichia coli, UniProt P0A988); binding, isothermal titration calorimetry; 37 °C): -10.1 kcal/mol
O=C(CN1CN(c2ccccc2)C2(CCN(C(=O)c3cnc4[nH]ncc4c3)CC2)C1=O)NCC(F)(F)F  inhibition (BMPR2 (Homo sapiens, UniProt Q13873); inhibitor; concentration not given): < 50%
CCOC(=O)[C@@H]1Cc2c(cc([N+](=O)[O-])cc2[N+](=O)[O-])[C@H](O)[C@]12C(=O)Nc1ccc(Br)cc12  remaining binding (MAP2K2 (Homo sapiens, UniProt P36507); binding, competition with immobilised ligand; 0.1 µM): 47%
C[C@H](NCc1ccc(-c2ccc(C(F)(F)F)cc2)cc1)C(N)=O  inhibition (HTR2C (Homo sapiens, UniProt P28335); radioligand binding, SafetyScreen panel; 1 µM, species human, added: 1.0 nM [3H]Mesulergine): -5%
COCC1CCCCN1C(=O)n1cc(C(O)(c2ccccc2)c2ccccc2)nn1 (centres unmarked)  SILAC activity ratio (Lysosomal phospholipase A and acyltransferase (Pla2g15, Mus musculus, UniProt Q8VEB4); probe labelling, inhibitor, competitive ABPP-SILAC, item: Lypla3; mouse T cells; concentration not given, 4 h, single peptide; relative to: treated over DMSO cells, lower = stronger inhibition): 1.53 and 1.36 and 1.46 and 1.57 and 1.48 and 1.21 and 1.58 and 1.6
CC[C@H](C)[C@@H]1NC(=O)[C@@H](CCCNC(=N)N)NC(=O)[C@@H](NC(=O)[C@@H](CC(C)C)NC(=O)[C@H](C)NC(=O)[C@H](C)NC(=O)[C@@H]2CCCN2C(=O)[C@@H](CC(C)C)NC(=O)[C@@H](NC(=O)[C@@H](CCCNC(=N)N)NC(=O)[C@@H](CC(C)C)NC(=O)[C@@H](CC(C)C)NC(=O)[C@@H](NC(=O)[C@@H](CCCNC(=N)N)NC(=O)[C@@H](CC(C)C)NC(=O)[C@@H](NC(=O)[C@@H](NC(=O)CNC(=O)[C@@H](CC(C)C)NC(=O)[C@@H](N)Cc2ccccc2)[C@@H](C)O)C(C)C)C(C)C)C(C)C)CSSC[C@@H](C(=O)O)NC(=O)[C@@H](CCCNC(=N)N)NC(=O)[C@@H](CCCNC(=N)N)NC(=O)[C@H](Cc2ccccc2)NC1=O  concentration of LTA interaction (Staphylococcus aureus lipoteichoic acid; lipoteichoic acid binding, BODIPY TR cadaverine displacement; one quarter of MIC): 0.5 µM
N[C@H](C(=O)N1CCCC1)C1CCN(c2nccc3c(-c4ncc(Cl)cc4Cl)cccc23)CC1  kcat (PADI1 (Homo sapiens, UniProt Q9ULC6); enzyme activity; 0.2458 µM, added: Ca2+ 0.25 mM): 0.139 s⁻¹ and 0.15 s⁻¹
O=C1NC(=O)c2c1c1cc(F)c[n+]3c1c1c2c2cc(O)ccc2[n]1[Ru-4]312([N]=C=S)[S+]3CC[S+]1CC[S+]2CC3 (centres unmarked)  remaining activity (CSNK1G3 (Homo sapiens, UniProt Q9Y6M4); enzyme activity; 100 nM, human enzyme, added: 10 µM ATP; relative to: untreated): -2%
CCc1nnc(-c2c(OC)cc(-c3cnc4cc(-c5cnn(C)c5)ccn34)cc2OC)o1  inhibition of specific binding (PDE3A (Homo sapiens, UniProt Q14432); 10 µM): 0%
CC(C)[C@H]1NC(=O)C[C@H]2/C=C/CCSSC[C@@H](NC1=O)C(=O)N[C@H](Cc1cccc3ccccc13)C(=O)NCC(=O)O2  inhibition (Casein kinase II subunit alpha', with CK2 beta (CSNK2A2, Homo sapiens, UniProt P19784); 10 µM): -3.4%
CC(C)CC(O)(CC(C)C)c1cn(C(=O)N2CCCC2)nn1  SILAC activity ratio (Phospholipase DDHD1 (Ddhd1, Mus musculus, UniProt Q80YA3); probe labelling, inhibitor, competitive ABPP-SILAC, item: Ddhd1; mouse T cells; concentration not given, 4 h, single peptide; relative to: treated over DMSO cells, lower = stronger inhibition): 1.39 and 1.42 and 1.08 and 1.07 and 1.24 and 1.04 and 1.2 and 1.26
CCCCC/C=C\C/C=C\C/C=C\C/C=C\CCCC(=O)NCCc1ccc(O)c(O)c1  maximal open probability (Trpv1 (Mus musculus, UniProt Q704Y3, D577E); ion current, agonist, whole-cell patch clamp; D577E; relative to: 3 mM 2-APB): 0.41 ± 0.09
O=C1NC2(CC2)COc2ncc(F)cc2[C@H]2COCCN2c2ccn3ncc1c3n2  alanine aminotransferase activity (Sprague-Dawley rat, female, serum; oral, 2.5 mg/kg/day, 4 weeks daily, end of treatment): 32 ± 8.8 U/L
CN(C)[C@H]1C[C@@]23CC[C@@]4(O2)C(=CC[C@]2(C)[C@@H](c5ccc6ccncc6c5)CC[C@H]24)C=C3[C@@H](O)[C@@H]1O  inhibition (ERN1 (Homo sapiens, UniProt O75460); ATP probe labelling, inhibitor, KiNativ profiling; 1 µM): -9.6%

A few entries again:
COC(=O)[C@@H](NC(=O)c1nn(Cc2ccc(F)cc2)c2cc(OCCCCNC(=N)N)ccc12)C(C)(C)C  maximal efficacy (Cannabinoid receptor 1, with Gz (CNR1, Homo sapiens, UniProt P21554); GTP turnover, agonist, item: Gz Gα subtype): 106%
CC(C)[C@H]1NC(=O)C[C@H]2/C=C/CCSSC[C@@H](NC1=O)C(=O)N[C@H](Cc1cccc3ccccc13)C(=O)NCC(=O)O2  inhibition (Casein kinase II subunit alpha', with CK2 beta (CSNK2A2, Homo sapiens, UniProt P19784); 10 µM): -3.4%
